{"data": "Results gathered from unrelated publications", "note": "Protocols differ between the studies behind these lines. Values joined by “and” are separate records of one study, mostly repeats; a detail may differ. ± marks the error that the study gave."}
{"Substance": "CC(C)C[C@H](NC(=O)[C@H](Cc1ccc(O)cc1)NC(=O)[C@@H](CCCNC(=N)N)NC(=O)[C@@H](CO)NC(=O)[C@H](Cc1ccccc1)NC(=O)[C@H](CC1CCCCC1)NC(=O)[C@H](CC(=O)O)NC(=O)CN1CCN(CC(=O)O)CCN(CC(=O)O)CCN(CC(=O)O)CC1)C(=O)N[C@@H](Cc1c[nH]c2ccccc12)C(=O)N[C@@H](CO)C(=O)O [copper-64 labelled]", "system": "human, stomach contents", "setting": "concentration not given, 1 h", "endpoint": "activity concentration", "value": "3180 Bq/mL and 6590 Bq/mL and 4270 Bq/mL and 4960 Bq/mL and 3620 Bq/mL and 5080 Bq/mL"}
{"Substance": "CC(C)C[C@@H](NC(=O)[C@@H](CC(C)C)NC(=O)[C@@H](CC(=O)O)NC(=O)[C@@H](CC(C)C)NC(=O)[C@@H](CC(C)C)NC(=O)[C@@H](CC(C)C)NC(=O)[C@H](NC(=O)[C@@H](CC(=O)O)NC(=O)[C@H](NC(=O)[C@H]1CCCN1C(=O)[C@@H](Cc1ccccc1)NC(=O)[C@@H](CC(C)C)NC(=O)[C@@H](CC(C)C)NC(=O)[C@@H](CC(=O)O)NC(=O)[C@@H](CC(C)C)NC(=O)[C@@H](Cc1ccc(O)cc1)NC(=O)[C@@H](C)NC(=O)[C@@H](CCCNC(=N)N)NC(=O)[C@@H](Cc1c[nH]c2ccccc12)NC(=O)[C@H]1CCCN1C(=O)[C@@H](CC(N)=O)NC(=O)[C@@H](CCC(N)=O)NC(=O)[C@@H](CC(=O)O)NC(=O)[C@@H](CC(=O)O)NC(=O)[C@@H](CSC1CC(=O)N(CCNC(=O)CN2CCN(CC(=O)O)CCN(CC(=O)O)CC2)C1=O)NC(=O)[C@@H](C)N)[C@H](C)O)[C@H](C)O)C(=O)N[C@H](Cc1c[nH]c2ccccc12)C(=O)O (some centres unmarked) [copper-64 labelled]", "system": "C57BL/6 mice, female, B16-F10 melanoma, blood", "setting": "intravenous, 1 h", "endpoint": "tissue uptake", "value": "28.4 %ID/g"}
{"Substance": "C[C@@H](O)[C@@H]1NC(=O)[C@H](CCCCN)NC(=O)[C@@H](Cc2c[nH]c3ccccc23)NC(=O)[C@H](Cc2ccc(O)cc2)NC(=O)[C@@H](NC(=O)[C@@H](Cc2ccccc2)NC(=O)CN2CCN(CC(=O)O)CCN(CC(=O)O)CCN(CC(=O)O)CC2)CSSC[C@@H](C(=O)N[C@H](CO)[C@@H](C)O)NC1=O [gallium-67 labelled]", "system": "male ICR mouse, intestine", "setting": "intravenous, 11 kBq, 3 h, radiolabelled", "endpoint": "tissue uptake", "value": "4.47 ± 0.54 %ID"}
{"Substance": "CC(C)C[C@H](NC(=O)[C@@H](CCCCNC(=O)CCCCCCCCCCNC(=O)CN1CCN(CC(=O)O)CCN(CC(=O)O)CCN(CC(=O)O)CC1)NC(=O)[C@H](Cc1ccc(O)cc1)NC(=O)[C@H](CO)NC(=O)[C@H](Cc1c[nH]c2ccccc12)NC(=O)[C@H](Cc1cnc[nH]1)NC(=O)[C@@H]1CCC(=O)N1)C(=O)N[C@@H](CCCN=C(N)N)C(=O)N1CCC[C@H]1C(=O)NCC(N)=O [indium-111 labelled]", "system": "athymic nude mouse, female, intestines", "setting": "intravenous, 0.037 MBq, 1 h", "endpoint": "tissue uptake", "value": "1.49 ± 0.32 %ID"}
{"Substance": "CCCC[C@H](NC(=O)COCCOCCNC(=O)CN1CCN(CC(=O)O)CCN(CC(=O)O)CC1)C(=O)N[C@H]1CC(=O)NCCCC[C@@H](C(N)=O)NC(=O)[C@H](Cc2c[nH]c3ccccc23)NC(=O)[C@H](CCCNC(=N)N)NC(=O)[C@@H](Cc2ccccc2)NC(=O)[C@H](Cc2c[nH]cn2)NC1=O [technetium-99m labelled]", "system": "C57 mouse, tumor", "setting": "intravenous, 0.037 MBq, 0.5 h", "endpoint": "tissue uptake", "value": "13.6 ± 1.13 %ID/g"}
{"Substance": "CC(C)C[C@H](NC(=O)[C@@H](CCCCNC(=O)[C@@H](Cc1ccccc1)NC(=O)CCCCCNC(=O)CN1CCN(CC(=O)O)CCN(CC(=O)O)CCN(CC(=O)O)CC1)NC(=O)[C@H](Cc1ccc(O)cc1)NC(=O)[C@H](CO)NC(=O)[C@H](Cc1c[nH]c2ccccc12)NC(=O)[C@H](Cc1c[nH]cn1)NC(=O)[C@@H]1CCC(=O)N1)C(=O)N[C@@H](CCCNC(=N)N)C(=O)N1CCC[C@H]1C(=O)NCC(N)=O [indium-111 labelled]", "system": "athymic nude mouse, female, pituitary", "setting": "intravenous, 0.037 MBq, 4 h", "endpoint": "tissue uptake", "value": "24.3 ± 8.32 %ID/g"}
{"Substance": "C=C1CC[C@H](OCCCNC(=O)CCOCCOCCOCCOCCOCCOCCOCCOCCOCCOCCOCCOCCOCCOCCOCCOCCOCCOCCOCCOCCOCCOCCOCCOCCOCCOCCOCCOCCOCCOCCOCCOCCOCCOCCOCCOCCNC(=O)CCN2C(=O)CC(SC[C@H](NC(=O)[C@H](Cc3ccccc3)NC(=O)[C@H](CC(N)=O)NC(=O)[C@H](Cc3c[nH]cn3)NC(=O)[C@@H](NC(=O)[C@H](CC(=O)O)NC(=O)[C@H](CCC(N)=O)NC(=O)[C@H](CC(C)C)NC(=O)[C@H](CCCCN)NC(=O)[C@H](CCCCN)NC(=O)[C@H](CCCNC(=N)N)NC(=O)[C@H](CC(C)C)NC(=O)[C@H](Cc3c[nH]c4ccccc34)NC(=O)[C@H](CCC(=O)O)NC(=O)[C@@H](NC(=O)[C@H](CCCNC(=N)N)NC(=O)[C@H](CCC(=O)O)NC(=O)[C@H](CCSC)NC(=O)[C@H](CO)NC(=O)[C@H](CC(N)=O)NC(=O)[C@H](CC(C)C)NC(=O)[C@H](Cc3c[nH]cn3)NC(=O)[C@H](CCCCN)NC(=O)CNC(=O)[C@H](CC(C)C)NC(=O)[C@H](CC(N)=O)NC(=O)[C@H](Cc3c[nH]cn3)NC(=O)[C@H](CCSC)NC(=O)[C@H](CC(C)C)NC(=O)[C@H](CCC(N)=O)NC(=O)[C@@H](NC(=O)[C@H](CCC(=O)O)NC(=O)[C@H](CO)NC(=O)[C@@H](NC(=O)[C@@H](N)CO)C(C)C)[C@@H](C)CC)C(C)C)C(C)C)C(=O)O)C2=O)C/C1=C/C=C1\\CCC[C@]2(C)[C@@H]([C@H](C)CCCC(C)(C)O)CC[C@@H]12 (some centres unmarked)", "system": "male cynomolgus monkey, plasma", "setting": "subcutaneous, 0.07 mg/kg, single dose", "endpoint": "bioavailability", "value": "53.5%"}
{"Substance": "human nucleophosmin", "assay": "far-UV CD, CDSSTR", "system": "Tris buffer, NaCl", "setting": "pH 7.5, room temperature", "endpoint": "beta-strand content", "value": "37%"}
{"note": "Excerpt of the above:"}
{"Substance": "CC(C)C[C@H](NC(=O)[C@@H](CCCCNC(=O)[C@@H](Cc1ccccc1)NC(=O)CCCCCNC(=O)CN1CCN(CC(=O)O)CCN(CC(=O)O)CCN(CC(=O)O)CC1)NC(=O)[C@H](Cc1ccc(O)cc1)NC(=O)[C@H](CO)NC(=O)[C@H](Cc1c[nH]c2ccccc12)NC(=O)[C@H](Cc1c[nH]cn1)NC(=O)[C@@H]1CCC(=O)N1)C(=O)N[C@@H](CCCNC(=N)N)C(=O)N1CCC[C@H]1C(=O)NCC(N)=O [indium-111 labelled]", "system": "athymic nude mouse, female, pituitary", "setting": "intravenous, 0.037 MBq, 4 h", "endpoint": "tissue uptake", "value": "24.3 ± 8.32 %ID/g"}
